Experimental data pooled from the literature.
A part holds a random share of what one study measured. Substitutions count along the parent as printed.

Series 1
Target: ABI1, truncated, D143A, DHFR fusion (Arabidopsis thaliana)
Method: DHFR PCA, deep sequencing
Matrix: yeast
Setting: methotrexate growth selection, single substitutions
Added: (+)-ABA 1.4 µM
Baseline: wild-type fitted maximum
Direction: higher = stronger binding
Quantity: relative binding score
Parent: PYL1, truncated, DHFR fusion (Arabidopsis thaliana); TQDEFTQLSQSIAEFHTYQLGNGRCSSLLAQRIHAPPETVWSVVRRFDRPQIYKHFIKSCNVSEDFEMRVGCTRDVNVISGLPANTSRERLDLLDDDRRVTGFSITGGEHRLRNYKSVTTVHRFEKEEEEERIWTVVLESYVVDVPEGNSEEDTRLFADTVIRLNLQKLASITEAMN
K58I: -12.3%
L138I: 1.61%
P50Q: -12.4%
I12V: 35.8%
N165V: 16.2%
Q19D: 76.8%
N114L: 0.493%
F124I: 75.4%
N77K: 73%
D65H: 42.8%
E128H: 67.9%
E127H: 64.4%
T120W: -8.35%
D95E: -3.01%
S117D: -5.25%
L20H: 75.6%

Series 2
Target: Histone acetyltransferase KAT6A, winged helix 2, GST fusion (KAT6A, Homo sapiens, UniProt Q92794, residues 85-181)
Method: protein binding microarray
Molecule type: double-stranded DNA, one strand shown
Matrix: in vitro
Tested at: not given
Setting: 8-mer, flanks averaged, mean of 2 arrays, mostly near background
Baseline: not given
Direction: higher = stronger binding
Quantity: E-score
Construct (chain): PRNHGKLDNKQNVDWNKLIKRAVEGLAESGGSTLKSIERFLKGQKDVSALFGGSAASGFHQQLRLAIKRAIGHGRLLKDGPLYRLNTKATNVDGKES
CACTAGGC: -0.0742
AAGAGACT: -0.188
AAAGGGAA: -0.0306
ATCCATCA: -0.195
CCAAAAAA: 0.231
CAGATCGG: 0.0154
ATCCGCAA: 0.0268
TAGGCGGA: 0.0902
CCTATCTA: -0.158
TATGCAAA: -0.0408
CAAACTGG: 0.146
ATAAAGGG: -0.0168
AAGCTTCG: -0.0488
AAATCCCT: 0.0365
CCGGCCGC: 0.289
ATGGATCA: -0.0922
ATGTCTAC: -0.133
CACCAAAG: 0.0686
ATCCCCTC: -0.0733
ATTGAAGC: 0.0674

Series 3
Target: CCNA1, cyclin fold, Cln2 fusion (human)
Method: yeast growth competition, sequencing
Matrix: yeast
Setting: weak parent motif
Baseline: not given
Direction: higher = stronger binding
Quantity: normalised enrichment score
Parent: PKMYT1 docking peptide (human); SFEPRNLLSLFED; partner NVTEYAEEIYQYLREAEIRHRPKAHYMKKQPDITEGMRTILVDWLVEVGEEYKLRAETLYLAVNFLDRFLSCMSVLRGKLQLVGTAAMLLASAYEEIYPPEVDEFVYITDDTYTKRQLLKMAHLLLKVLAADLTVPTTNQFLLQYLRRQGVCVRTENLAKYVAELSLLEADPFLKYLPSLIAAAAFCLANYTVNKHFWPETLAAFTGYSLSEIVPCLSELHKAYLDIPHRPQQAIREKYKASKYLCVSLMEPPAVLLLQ
R5G: 0.377
R5W: 0.241
E3S: 0.0497
F2L: 0.257
R5A: 0.329
P4G: -0.0122
N6H: 0.202
P4H: 0.0319
P4I: -0.0443
P4Y: 0.0394
S1E: -0.0473
F11D: 0.317
R5A L7A: -0.106
F11Q: 0.574
E3K: 0.187
L10Q: 0.289
S9W: 0.0426
E3I: 0.0663

Series 4
Target: Prothrombin, mature alpha-thrombin (F2, Homo sapiens, UniProt P00734)
Method: aptamer microarray, sandwich
Molecule type: DNA with 2'F-ANA
Matrix: in vitro
Tested at: 200 nM
Setting: whole 15-mer aptamer, many near background
Added: Cy3 exosite-II aptamer, 400 nM
Direction: higher = stronger binding
Quantity: mean fluorescence intensity
Sequence: GGTTGGTGTGGTTGG
2'F-ANA at 1 2 4 9 13 14 15: 52.2 a.u.
2'F-ANA at 2 4 5 7 11 12 14 15: 47.6 a.u.
2'F-ANA at 4 9 11 13 14 15: 69.4 a.u.
2'F-ANA at 4 9 12 13: 372 a.u.
2'F-ANA at 1 3 4 5 6 7 9 11 12 15: 88.1 a.u.
2'F-ANA at 3 4 6 8 9 10 12 15: 283 a.u.
2'F-ANA at 1 9 10 11 14 15: 50.5 a.u.
2'F-ANA at 1 6 8 13 14 15: 124 a.u.
2'F-ANA at 1 2 7 9 12 13 15: 351 a.u.
2'F-ANA at 1 2 3 5 6 8 11: 161 a.u.
2'F-ANA at 1 3 5 7 9 10 12 13 14: 46.7 a.u.
2'F-ANA at 4 5 8 9 10 13 15: 46 a.u.
2'F-ANA at 5 6 7 10 11 14: 42.7 a.u.
2'F-ANA at 8 9 10 11 13 14: 101 a.u.
2'F-ANA at 3 5 6 7 9 10 11 13 14: 60.8 a.u.
2'F-ANA at 2 5 6 7 8 9 10 11 13 14 15: 50 a.u.
2'F-ANA at 1 2 3 5 6 7 9 12 15: 103 a.u.
2'F-ANA at 1 4 5 6 8 11 12 15: 86.7 a.u.
2'F-ANA at 1 2 3 4 8 12 15: 493 a.u.
2'F-ANA at 2 3 6 8 10 13 15: 259 a.u.
2'F-ANA at 1 3 4 8 9 14 15: 64.5 a.u.
2'F-ANA at 2 3 7 8 9 10 12 15: 456 a.u.
2'F-ANA at 3 5 6 9 11 14 15: 48.9 a.u.
2'F-ANA at 2 3 4 5 7 10 14: 47.9 a.u.
2'F-ANA at 1 4 5 6 7 9 15: 56.7 a.u.

Series 5
Target: TAR DNA-binding protein 43, full length, His tag (TARDBP, Homo sapiens, UniProt Q13148, residues 1-414)
Method: RNA Bind-n-Seq
Molecule type: RNA
Matrix: in vitro
Tested at: 20 nM
Setting: 6-mer, flanks averaged, single round
Added: 150 mM KCl
Baseline: input library
Direction: higher = stronger binding
Quantity: 6-mer enrichment (R)
AAAUUU: 0.656
AAAAAU: 0.859
UGCGAU: 0.764
CUCGCA: 0.609
GGUGAG: 3.52
CUUUGA: 0.626
AUGGCG: 1.51
CAGACC: 0.666
CCUGGU: 0.772
CCGCUU: 0.613
GGCGAC: 1.66
AGUAUC: 0.596
CAGCUU: 0.615
AAGUAG: 0.862
GCGGCG: 3.59
AUAUAC: 0.587
AGCACC: 0.704
AUGAGU: 1.03
GCUUGA: 0.829
AGGCAG: 1.61
AACUGA: 0.641
AGGGGU: 3.73
GGAGAU: 1.48

Series 6
Target: Interferon regulatory factor 3, full length, phosphomimetic (IRF3, Homo sapiens, UniProt Q14653, residues 1-427, S386D/S396D/S398D/S402D/T404D/S405D)
Method: protein-binding microarray
Molecule type: double-stranded DNA, one strand shown
Matrix: in vitro
Tested at: 2540 nM top
Setting: 60-bp whole probe
Added: salmon DNA 0.4 mg/ml
Baseline: random background probes
Direction: higher = stronger binding
Quantity: fitted relative affinity
All sequences stand within: GCCTAGCAC … GTCTTGATTCGCTTGACGCTGCTG
Target sequence (chain): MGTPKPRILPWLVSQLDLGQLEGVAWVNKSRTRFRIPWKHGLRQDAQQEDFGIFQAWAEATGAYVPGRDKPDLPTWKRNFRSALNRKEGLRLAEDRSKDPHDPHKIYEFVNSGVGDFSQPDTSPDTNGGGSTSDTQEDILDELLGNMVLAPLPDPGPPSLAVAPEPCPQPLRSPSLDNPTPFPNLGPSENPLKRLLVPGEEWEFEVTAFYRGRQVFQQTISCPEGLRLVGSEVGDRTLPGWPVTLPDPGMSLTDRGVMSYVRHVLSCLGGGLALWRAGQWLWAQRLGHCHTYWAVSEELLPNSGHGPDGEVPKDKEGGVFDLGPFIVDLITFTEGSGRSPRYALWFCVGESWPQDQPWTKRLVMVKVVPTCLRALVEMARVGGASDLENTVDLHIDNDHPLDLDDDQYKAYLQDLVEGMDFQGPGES
TTAGATTTCAGTCTCGATTGGTGCTAG: 2.18 z-score
GTTTTTTTCTATATGCAATGGTGCTAG: 2.14 z-score
GACGGAATGGGGTTTCGGGACGTGCTA: 1.03 z-score
GACGGTCTCCTTCTCCTGACGTGCTAG: 4.33 z-score
TCATTTTTTTTTTACTTACTGTGCTAG: 1.44 z-score
TTAGATTTCGGTTATCGATTAGTGCTA: 4.64 z-score
GACGGACTGGGGTATCGGGTCGTGCTA: -0.246 z-score
GCCGGTCTCCTTCTCCTGACGTGCTAG: 4.84 z-score
TCAACACTAATTTTCAAACTGTGCTAG: 0.368 z-score

Excerpt of the above (series 4):
2'F-ANA at 1 2 7 9 12 13 15: 351 a.u.
2'F-ANA at 1 2 3 5 6 8 11: 161 a.u.
2'F-ANA at 1 3 5 7 9 10 12 13 14: 46.7 a.u.
2'F-ANA at 4 5 8 9 10 13 15: 46 a.u.
2'F-ANA at 5 6 7 10 11 14: 42.7 a.u.
2'F-ANA at 8 9 10 11 13 14: 101 a.u.
2'F-ANA at 3 5 6 7 9 10 11 13 14: 60.8 a.u.
2'F-ANA at 2 5 6 7 8 9 10 11 13 14 15: 50 a.u.
2'F-ANA at 1 2 3 5 6 7 9 12 15: 103 a.u.
2'F-ANA at 1 4 5 6 8 11 12 15: 86.7 a.u.
2'F-ANA at 1 2 3 4 8 12 15: 493 a.u.
2'F-ANA at 2 3 6 8 10 13 15: 259 a.u.
2'F-ANA at 1 3 4 8 9 14 15: 64.5 a.u.
2'F-ANA at 2 3 7 8 9 10 12 15: 456 a.u.
2'F-ANA at 3 5 6 9 11 14 15: 48.9 a.u.
2'F-ANA at 2 3 4 5 7 10 14: 47.9 a.u.
